Published values pooled from the literature.
A part holds a random share of what one study measured. Substitutions count along the parent as printed.

Block 1
Target: Histone acetyltransferase KAT6A, both winged helices, GST fusion (KAT6A, Homo sapiens, UniProt Q92794, residues 1-181)
Method: protein binding microarray
Form: double-stranded DNA, one strand shown
Sample: in vitro
Concentration: not given
Setting: 8-mer, flanks averaged, mean of 2 arrays, mostly near background
Baseline: not given
Reading: higher = stronger binding
Target sequence (chain): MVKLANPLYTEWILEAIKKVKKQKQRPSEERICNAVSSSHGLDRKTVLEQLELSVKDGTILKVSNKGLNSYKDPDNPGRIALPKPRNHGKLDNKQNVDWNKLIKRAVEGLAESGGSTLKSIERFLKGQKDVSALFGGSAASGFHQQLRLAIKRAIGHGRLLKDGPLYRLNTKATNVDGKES
The E-score of `ATGACCAT` is reported as -0.107.
For `CTAGACAG`, the E-score was 0.0157.
With `CCTTATGA` the E-score was -0.0772.
With `ACTGTTGA` the E-score was -0.0781.

Block 2
Target: Interferon regulatory factor 7, full length, phosphomimetic (IRF7, Homo sapiens, UniProt Q92985, residues 1-503, S101K/S471D/S472D/S475D/S476D/S477D/S483D/S484D/S487D)
Method: protein-binding microarray
Form: double-stranded DNA, one strand shown
Sample: in vitro
Concentration: 250 nM
Setting: 60-bp whole probe
Together with: salmon DNA 0.4 mg/ml
Baseline: random background probes
Reading: higher = stronger binding
Residues (chain): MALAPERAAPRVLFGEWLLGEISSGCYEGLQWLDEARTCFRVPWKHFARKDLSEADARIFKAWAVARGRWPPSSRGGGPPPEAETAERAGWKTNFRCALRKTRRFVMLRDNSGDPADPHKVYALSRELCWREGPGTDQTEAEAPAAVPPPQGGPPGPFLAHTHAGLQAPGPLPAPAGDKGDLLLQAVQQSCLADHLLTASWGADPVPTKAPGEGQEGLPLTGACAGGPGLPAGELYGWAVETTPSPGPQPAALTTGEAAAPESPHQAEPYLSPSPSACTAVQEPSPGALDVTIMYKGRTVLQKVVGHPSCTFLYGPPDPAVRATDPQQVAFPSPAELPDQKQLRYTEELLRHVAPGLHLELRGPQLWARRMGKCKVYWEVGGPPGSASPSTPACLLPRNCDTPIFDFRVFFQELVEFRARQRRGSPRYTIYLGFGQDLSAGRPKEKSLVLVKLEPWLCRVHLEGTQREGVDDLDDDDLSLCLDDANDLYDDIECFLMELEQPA
With `GCCTAGCACTAGTTTTCATTTTCTGAATGTGTGCTAGTCTTGATTCGCTTGACGCTGCTG` the log fluorescence was 6.16 z-score.
The log fluorescence of `GCCTAGCACGACGATATGAGTTTCGAGACGTGCTAGGTCTTGATTCGCTTGACGCTGCTG` is reported as 3.06 z-score.
The log fluorescence of `GCCTAGCACGACGATCTCAGGTTCGAGACGTGCTAGGTCTTGATTCGCTTGACGCTGCTG` is reported as 0.29 z-score.
For `GCCTAGCACTTAGGTCTCCTGCTCCTTTAGTGCTAGGTCTTGATTCGCTTGACGCTGCTG`, the log fluorescence was -0.456 z-score.

Block 3
Target: CCNA2, cyclin fold, Cln2 fusion (human)
Method: yeast growth competition, sequencing
Sample: yeast
Setting: strong parent motif
Baseline: not given
Reading: higher = stronger binding
Parent: CDKN1B docking peptide (human); PSACRNLFGPVDH; partner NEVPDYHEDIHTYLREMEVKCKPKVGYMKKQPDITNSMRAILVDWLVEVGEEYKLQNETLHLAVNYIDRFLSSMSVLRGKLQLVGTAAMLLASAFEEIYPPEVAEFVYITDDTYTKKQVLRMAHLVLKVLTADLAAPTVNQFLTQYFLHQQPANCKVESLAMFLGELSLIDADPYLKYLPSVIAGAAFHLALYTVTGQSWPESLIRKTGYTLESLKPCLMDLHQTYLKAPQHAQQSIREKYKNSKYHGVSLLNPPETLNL
`PSACRNLFGPVGH [D12G]` — result for “normalised enrichment score”: 4.05.
`PGACRNLFGPVDH [S2G]` — result for “normalised enrichment score”: 3.91.
For `PSACRALFGPVDH [N6A]`, “normalised enrichment score” read 3.21.
Under “normalised enrichment score”, `PSACRRLFGPVDH [N6R]` is recorded as 4.33.

Single results of other studies
With `PhoQ, residues 284 288 289 292 302 303 ASVMEA` the fold induction was 2.59 (PhoP, residues 12 14 15 18 19 NQAHL (Escherichia coli, UniProt P23836); Sort-seq, item: YFP reporter; E. coli; PhoQ-PhoP variant library, together with: 10 µM Mg2+; baseline: high Mg2+ state, higher = stronger signaling).

Repeated from above (block 3):
Under “normalised enrichment score”, `PSACRRLFGPVDH [N6R]` is recorded as 4.33.
